Assay results from different studies.
Each numbered part is a random draw from the data of one study; scales do not carry over between parts.

Set 1
Target: Prothrombin, mature alpha-thrombin (F2, Homo sapiens, UniProt P00734)
Technique: aptamer microarray, sandwich
Form: DNA with 2'F-ANA
Sample: in vitro
Tested at: 200 nM
Setting: whole 15-mer aptamer, many near background
Added: Cy3 exosite-II aptamer, 400 nM
Direction: higher = stronger binding
Oligonucleotide: GGTTGGTGTGGTTGG
Modification	mean fluorescence intensity [a.u.]
2'F-ANA at 2 3 4 5 6 8 9 10 12 13	52.8
2'F-ANA at 2 3 6 8 10 12 14	263
2'F-ANA at 1 2 3 4 6 9 10 15	56.8
2'F-ANA at 3 6 7 8 10 13 14	364
2'F-ANA at 1 2 3 5 6 8 9 11 12 13 14	50.4
2'F-ANA at 2 4 5 11 14 15	45.2

Set 2
Target: Interferon regulatory factor 5, full length, phosphomimetic (IRF5, Homo sapiens, UniProt Q13568-2, residues 1-514, S451D/S453D/S456D/S462D)
Technique: protein-binding microarray
Form: double-stranded DNA, one strand shown
Sample: in vitro
Tested at: 940 nM top
Setting: 60-bp whole probe
Added: salmon DNA 0.4 mg/ml
Reference: random background probes
Direction: higher = stronger binding
Constant ends, left off below: GCCTAGCAC … GTCTTGATTCGCTTGACGCTGCTG
Oligonucleotide	fitted relative affinity [z-score]
GACGATCTCCGTCTCGAGACGTGCTAG	-0.00742
TTCCCTCTGCTCCTCTTTTTGTGCTAG	1.52
TCATGTCTGGGCTTTTTCACTGTGCTA	-0.34
TTAGGTCTCGGTTTCGCTTAGTGCTAG	7.33
TCAATTATTTATTGTAGCACTGTGCTA	-0.0424

Set 3
Target: Histone acetyltransferase KAT6A, winged helix 1, GST fusion (KAT6A, Homo sapiens, UniProt Q92794, residues 1-85)
Technique: protein binding microarray
Form: double-stranded DNA, one strand shown
Sample: in vitro
Tested at: not given
Setting: 8-mer, flanks averaged, mean of 2 arrays, mostly near background
Reference: not given
Direction: higher = stronger binding
Target sequence (chain): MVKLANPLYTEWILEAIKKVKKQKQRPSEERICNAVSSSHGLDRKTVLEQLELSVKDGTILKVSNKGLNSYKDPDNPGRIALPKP
Oligonucleotide	E-score
CCACCGAA	-0.143
GCATTGAA	-0.0565
CTTGGGGA	-0.222
AGCCGTAA	0.354
AGGTGTTC	-0.111
GCTGGCCA	-0.0465

Single results of other studies
Substance	target	test	system	setting	scale	quantity	value
PhoQ, residues 284 288 289 292 302 303 GLASVI	PhoP, residues 12 14 15 18 19 SGWQI (Escherichia coli, UniProt P23836)	Sort-seq, refers to: YFP reporter	E. coli	PhoQ-PhoP variant library, added: 10 µM Mg2+	reference: high Mg2+ state, higher = stronger signaling	fold induction	10.9
